Literature values, collected from citations in different studies.
Protocols differ between the studies behind these lines. ± marks the error that the study gave. Values after ≈ are worked out from the molar mass of the structure shown.
Chain of UniProt Q99759 (whole entry, looked up): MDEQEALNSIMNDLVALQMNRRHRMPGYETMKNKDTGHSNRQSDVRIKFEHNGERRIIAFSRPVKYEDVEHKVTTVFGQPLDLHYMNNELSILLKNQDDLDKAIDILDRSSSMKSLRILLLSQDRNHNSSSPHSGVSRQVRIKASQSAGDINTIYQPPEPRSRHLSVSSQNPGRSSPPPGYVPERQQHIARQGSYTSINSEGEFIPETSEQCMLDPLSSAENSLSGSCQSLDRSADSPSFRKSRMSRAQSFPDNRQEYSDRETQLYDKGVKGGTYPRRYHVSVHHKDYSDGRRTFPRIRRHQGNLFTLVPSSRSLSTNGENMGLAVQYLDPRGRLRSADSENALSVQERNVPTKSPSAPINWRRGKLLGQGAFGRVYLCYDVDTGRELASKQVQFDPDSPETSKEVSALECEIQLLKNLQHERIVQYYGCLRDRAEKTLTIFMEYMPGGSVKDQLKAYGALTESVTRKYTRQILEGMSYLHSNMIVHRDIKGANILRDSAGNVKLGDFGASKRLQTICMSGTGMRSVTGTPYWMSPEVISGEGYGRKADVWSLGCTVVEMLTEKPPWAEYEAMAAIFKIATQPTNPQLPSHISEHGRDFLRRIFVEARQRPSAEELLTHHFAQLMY

| SMILES | target or system | test | system | setting | how to read | quantity | value |
| --- | --- | --- | --- | --- | --- | --- | --- |
| CNC(C)C1CCC(N)C(OC2C(N)CC(N)C(OC3OCC(C)(O)C(NC)C3O)C2O)O1 (stereo not shown) | Enterobacter cloacae |  | clinical isolate RKI-No_113/16 |  |  | MIC | 1 µg/mL (≈ 2.09 µM) |
| COc1cc2c(Oc3ccc4[nH]c(C)cc4c3F)ccnc2cc1OCC1(N)CC1 |  |  | adult human | 12 mg/day continuous |  | Cmax steady state | 40 to 80 ng/mL |
| Cc1nsc(-c2nnc3n2CCN(C(=O)c2ccc(F)cc2)[C@@H]3C)n1 |  |  | human | oral, 45 mg single dose, fed |  | Cmax | 343 ng/mL |
| CC1(C)S[C@@H]2[C@H](NC(=O)[C@H](N)c3ccccc3)C(=O)N2[C@H]1C(=O)O | Enterobacter cloacae |  | clinical isolate RKI-No_34/16 |  |  | MIC | > 16 µg/mL |
| CO[C@]1(C(=O)N[C@@H](C)c2ccc(-n3cc(F)cn3)nc2)CC[C@H](c2nc(C)cc(Nc3cc(C)[nH]n3)n2)CC1 |  |  | healthy human | dose not given, together with: itraconazole multiple doses | relative to: compound alone | Cmax increase | 84% |
| C[C@@H](Oc1cc(-c2cnn(C3CCNCC3)c2)cnc1N)c1c(Cl)ccc(F)c1Cl |  |  | human patients | dose not given |  | Cmax steady state | 315 ng/mL |
| C=CC(=O)N1CCC([C@@H]2CCNc3c(C(N)=O)c(-c4ccc(Oc5ccccc5)cc4)nn32)CC1 |  |  | human patients | oral, 40 mg once daily, day 8 |  | Cmax | 79 ± 30 ng/mL |
| C1=C/COCc2cc(ccc2OCCN2CCCC2)Nc2nccc(n2)-c2cccc(c2)COC/1 |  |  | human | dose not given, together with: clarithromycin | relative to: without clarithromycin | Cmax increase | 30% |
| O=C(c1cc(Cc2n[nH]c(=O)c3ccccc23)ccc1F)N1CCN(C(=O)C2CC2)CC1 |  |  | human | oral, 300 mg tablet, single dose, together with: rifampicin 600 mg qd for 13 days | relative to: with over without rifampicin | Cmax ratio | 2.2 |
| O=C(O)[C@H]1O[C@@H](Oc2ccc([C@@H]3[C@@H](CC[C@H](O)c4ccc(F)cc4)C(=O)N3c3ccc(F)cc3)cc2)[C@H](O)[C@@H](O)[C@@H]1O |  |  | human, serum | dose not given, together with: rifampin, 600 mg, single dose | relative to: without rifampin | Cmax increase | 2.64 fold |
| COCCc1ccc(OCC(O)CNC(C)C)cc1 (stereo not shown) |  |  | human fasted | 100 mg multiple doses, day 5, mean |  | Cmax | 36 ng/mL |
| CCOc1c([C@H](C)n2nc(C)c3c(N)ncnc32)cc(Cl)c(F)c1[C@@H]1CNC(=O)C1 |  |  | human | oral, 10 mg once daily, together with: itraconazole | relative to: compound alone | Cmax increase | 21% |
| C[C@@H](Oc1ccc(S(C)(=O)=O)cc1C(=O)N1C[C@@H]2C[C@]2(c2cc(C(F)(F)F)on2)C1)C(F)(F)F |  |  | human | 25 mg single dose, observed geometric mean, together with: rifampicin | relative to: with over without rifampicin | Cmax ratio | 0.37 |
| C[C@@H](Oc1ccc(S(C)(=O)=O)cc1C(=O)N1C[C@@H]2C[C@]2(c2cc(C(F)(F)F)on2)C1)C(F)(F)F |  |  | human | oral, 25 mg single dose, together with: Meal, high-fat, ~1000 kcal | relative to: fasted state | Cmax increase | 42% |
| CNCc1cc(-c2ccccc2F)n(S(=O)(=O)c2cccnc2)c1 |  |  | human | 40 mg, single dose, fed, CYP3A victim drug |  | Cmax | 47.1 ng/mL |
| Nc1cc(C(F)(F)F)c(-c2nc(N3CCOCC3)nc(N3CCOCC3)n2)cn1 | Mitogen-activated protein kinase kinase kinase 3 (MAP3K3, Homo sapiens, UniProt Q99759) | enzyme activity |  | 10 µM | relative to: untreated | remaining activity | 79% |

Repeated from above:
| SMILES | target or system | test | system | setting | how to read | quantity | value |
| --- | --- | --- | --- | --- | --- | --- | --- |
| CNCc1cc(-c2ccccc2F)n(S(=O)(=O)c2cccnc2)c1 |  |  | human | 40 mg, single dose, fed, CYP3A victim drug |  | Cmax | 47.1 ng/mL |
| Nc1cc(C(F)(F)F)c(-c2nc(N3CCOCC3)nc(N3CCOCC3)n2)cn1 | Mitogen-activated protein kinase kinase kinase 3 (MAP3K3, Homo sapiens, UniProt Q99759) | enzyme activity |  | 10 µM | relative to: untreated | remaining activity | 79% |
